Results collected from several papers.
Parts stem from different laboratories: compare values within a part only. Substitutions count along the parent as printed.

Series 1
Target: Interferon regulatory factor 7, full length, phosphomimetic (IRF7, Homo sapiens, UniProt Q92985, residues 1-503, S471D/S472D/S475D/S476D/S477D/S483D/S484D/S487D)
Technique: protein-binding microarray
Molecule type: double-stranded DNA, one strand shown
Medium: in vitro
Concentration: 2200 nM top
Setting: 60-bp whole probe
With: salmon DNA 0.4 mg/ml
Baseline: random background probes
Reading: higher = stronger binding
Endpoint: fitted relative affinity
Shared flanks, not repeated: GCCTAGCAC … GTCTTGATTCGCTTGACGCTGCTG
Construct (chain): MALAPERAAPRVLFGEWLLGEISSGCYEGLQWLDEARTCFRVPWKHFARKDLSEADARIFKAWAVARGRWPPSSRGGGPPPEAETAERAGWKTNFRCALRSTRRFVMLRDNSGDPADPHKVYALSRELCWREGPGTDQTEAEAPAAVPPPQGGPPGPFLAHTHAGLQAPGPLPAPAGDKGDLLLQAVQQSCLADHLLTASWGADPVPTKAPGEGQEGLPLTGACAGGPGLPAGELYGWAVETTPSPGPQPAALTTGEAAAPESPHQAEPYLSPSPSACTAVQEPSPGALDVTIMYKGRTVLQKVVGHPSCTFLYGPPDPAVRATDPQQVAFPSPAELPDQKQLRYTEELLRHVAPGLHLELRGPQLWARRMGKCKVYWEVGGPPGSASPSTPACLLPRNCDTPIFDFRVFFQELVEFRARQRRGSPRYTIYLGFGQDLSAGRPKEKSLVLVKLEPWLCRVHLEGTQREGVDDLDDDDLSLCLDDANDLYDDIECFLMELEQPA
Sequence = TCACATTTTCGTTTTTAACTGTGCTAG; result = 9.07 z-score
Sequence = TTAGGTATCGCTTTCGGTTAGTGCTAG; result = 7.8 z-score
Sequence = TTAGGTTTCCTTTTCCTGTAGTGCTAG; result = 5.09 z-score
Sequence = TTCGGACTGCTTATCCTTTAGTGCTAG; result = 1.09 z-score
Sequence = GAGGATATCAGTTTCGAGACGTGCTAG; result = 3.43 z-score
Sequence = AAGTGTATATACTATATGCATGTGCTA; result = 0.0291 z-score
Sequence = GACGGACTGCTTCTACTGACGTGCTAG; result = 0.252 z-score
Sequence = TCATCTTTTCTGTTGTCACTGTGCTAG; result = 3.11 z-score
Sequence = GACGGTTTCCACACTGGGGACGTGCTA; result = 1.25 z-score
Sequence = TTAGGACTGGACACTGGCTTAGTGCTA; result = -0.692 z-score
Sequence = GACGATATCGAGTATCGAGACGTGCTA; result = 0.121 z-score
Sequence = TTAGGTTACGGGTATCGGTTAGTGCTA; result = 0.895 z-score
Sequence = TGAGGTATCGGTATCGGTTAGTGCTAG; result = 0.6 z-score
Sequence = TTAGATTTCAGTTTCGACTAGTGCTAG; result = 5.11 z-score
Sequence = TTAGATCTCAGACTGGATTTGTGCTAG; result = -0.113 z-score
Sequence = TTAGAACTGAGACTGCATTAGTGCTAG; result = -0.766 z-score
Sequence = GACGGTTTCCTTCTCGTGACGTGCTAG; result = 2.74 z-score
Sequence = AAGGCTTTGCTTCCTGCAGAGTGCTAG; result = -0.0411 z-score
Sequence = TTAGGTTTCGACTATCGGTTAGTGCTA; result = 3.37 z-score
Sequence = TTAGAACTGGGGTATCGATTCGTGCTA; result = 0.525 z-score
Sequence = TGAAGAATGCCTTTAATAAGGTGCTAG; result = -1.04 z-score
Sequence = GACGGTTCCCTTTTCCTCACGTGCTAG; result = 2.8 z-score
Sequence = GACGGACTGGACTCTGGGGACGTGCTA; result = -0.853 z-score
Sequence = GACGGTTTCTGTTTCGGGACGTGCTAG; result = 7.8 z-score
Sequence = TGGGATTTTTAGTTAGAAAAGTGCTAG; result = -0.479 z-score

Series 2
Target: CCNB2, cyclin fold, Cln2 fusion (human)
Technique: yeast growth competition, sequencing
Medium: yeast
Setting: weak parent motif
Baseline: not given
Reading: higher = stronger binding
Endpoint: normalised enrichment score
Starting sequence: WEE1 docking peptide (human); CTLRQKLIFSPCS
Substitution = S10A; result = 0.58
Substitution = Q5A; result = 0.54
Substitution = I8A; result = 0.705
Substitution = C12A; result = 0.33
Substitution = K6A; result = -0.138
Substitution = F9A; result = 0.109
Substitution = R4A; result = 0.257

Series 3
Target: Max-binding protein MNT, bHLH-zipper, MAX partner unstated (MNT, Homo sapiens, UniProt Q99583, residues 220-300)
Technique: protein-binding microarray
Molecule type: double-stranded DNA, one strand shown
Medium: in vitro
Concentration: not given
Setting: k-mer, scored over probes, only values ≥0.25
Reading: higher = stronger binding
Endpoint: E-score
Target sequence (chain): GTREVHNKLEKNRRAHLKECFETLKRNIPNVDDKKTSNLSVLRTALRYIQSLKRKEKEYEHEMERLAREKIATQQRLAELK
Sequence = ATGCAACG; result = 0.272
Sequence = CTGTGCGC; result = 0.317
Sequence = GTGACCAC; result = 0.337
Sequence = ACCCACGT; result = 0.436
Sequence = GAGTGCAC; result = 0.312
Sequence = CATGGTGG; result = 0.298
Sequence = CGTTACCA; result = 0.253
Sequence = AGTGCACG; result = 0.334
Sequence = CGTGCAAC; result = 0.402
Sequence = AGCATGCC; result = 0.384
Sequence = CGTGTGAC; result = 0.279
Sequence = ACCCCACG; result = 0.321
Sequence = CACCCGTG; result = 0.253
Sequence = TGCCCACA; result = 0.253
Sequence = TCGTGCAA; result = 0.252
Sequence = ATGTGTTC; result = 0.259
Sequence = CTCGTGTA; result = 0.448
Sequence = CATGTTAC; result = 0.283
Sequence = CCCACGAG; result = 0.424
Sequence = CGGACACG; result = 0.317
Sequence = CATCCTCG; result = 0.277
Sequence = CCATGCGC; result = 0.418
Sequence = AGCGTGCC; result = 0.374
Sequence = ACGCCGGA; result = 0.269
Sequence = ATGGGGAG; result = 0.272

Series 4
Target: Ras GTPase-activating protein-binding protein 1, full length (G3BP1, Homo sapiens, UniProt Q13283)
Sequence of UniProt Q13283 (whole entry, looked up): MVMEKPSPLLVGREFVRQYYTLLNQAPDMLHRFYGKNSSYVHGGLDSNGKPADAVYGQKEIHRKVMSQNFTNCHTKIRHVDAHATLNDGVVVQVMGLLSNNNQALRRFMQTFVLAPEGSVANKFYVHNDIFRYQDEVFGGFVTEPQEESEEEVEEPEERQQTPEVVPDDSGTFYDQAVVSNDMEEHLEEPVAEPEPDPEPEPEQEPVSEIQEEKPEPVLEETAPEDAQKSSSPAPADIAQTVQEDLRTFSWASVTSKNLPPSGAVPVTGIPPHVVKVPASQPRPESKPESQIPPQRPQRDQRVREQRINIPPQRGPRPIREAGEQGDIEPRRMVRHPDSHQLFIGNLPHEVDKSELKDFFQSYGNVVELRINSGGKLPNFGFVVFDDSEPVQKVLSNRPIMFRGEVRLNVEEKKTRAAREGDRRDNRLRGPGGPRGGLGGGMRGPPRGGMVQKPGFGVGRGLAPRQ
Technique: RNA Bind-n-Seq
Molecule type: RNA
Medium: in vitro
Concentration: 200 nM
Setting: whole 134-nt RNA, ends assumed
With: 150 mM KCl
Baseline: input library
Reading: higher = stronger binding
Endpoint: log2 enrichment
Sequence = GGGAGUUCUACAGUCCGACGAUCUGGGAGGUGGAUUUUCUUUAUUUUUUUAGCUCAUUUCCAGGGGUGGGAAUUUUUUUUUAAUAUGUGUCAUGAAUAAAGUUGUUUUUGAAAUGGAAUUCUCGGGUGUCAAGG; result = 0.228
Sequence = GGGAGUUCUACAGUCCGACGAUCGCAGGAAGUAAAAACAAAUGGAAAUGCUUCGGAUAGUGGCAGGGGUGGGGGUUGCUAAGGAAAGGAUGGGAUGGGAGUGGGUAAAGAGUUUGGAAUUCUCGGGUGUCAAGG; result = 0.984
Sequence = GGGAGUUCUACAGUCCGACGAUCACCAUGCAGGUGGGCAUCUUCGGGAAGUGGGGCAAGGGGGGGAUAGGGAGGGGGGUAACACUUUGGGAACAGGUGGUCCCAGGUCGUUUCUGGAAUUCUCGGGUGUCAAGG; result = 1.1
Sequence = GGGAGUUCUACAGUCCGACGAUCUUUCAGGGCGCCCUGCGUCCGGCAGAGGAGGCGAGCAUCCCGCUCAGGUGAUGAGGAACCCCUCGCGCACCCAGCGCAGAAGGCUGCUGCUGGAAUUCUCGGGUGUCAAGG; result = -1.23
Sequence = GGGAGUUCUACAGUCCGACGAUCAAUUCUCAUUUCUCGACAUAAAGCCUUGUCUAAAGUGAGAUGUUUUCCAGGUCAUACAUAGGUUUCUCCCUGGGGUAAUUGGAAGUUCUUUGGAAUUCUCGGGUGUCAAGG; result = -1.71
Sequence = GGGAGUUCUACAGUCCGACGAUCGUCCUGUGCUACACAUCGUAUGUACCGAAUCGGGGAAAAAGGAAAAAGGGGAAAAAGGAAAGUAUUAUGUUACGCCGUUCGGAUCUGCACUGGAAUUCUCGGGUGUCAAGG; result = -0.387
Sequence = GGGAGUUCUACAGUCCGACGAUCCCUCAAGUCCUGUGCUACACAUCGUAUGUACCGAAUCGGGGCGGGCGGCGGGAAAGUAUUAUGUUACGCCGUUCGGAUCUGCACUUCCAGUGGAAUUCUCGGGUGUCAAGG; result = 0.409
Sequence = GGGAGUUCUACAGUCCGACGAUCUCCUGUGCUACACAUCGUAUGUACCGAAUCGGGGCCCCCCGGCCCCCCGGCCCCCCGGGGAAAGUAUUAUGUUACGCCGUUCGGAUCUGCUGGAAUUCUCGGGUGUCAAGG; result = -0.0604
Sequence = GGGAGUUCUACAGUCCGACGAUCUGGCCCUGGUGGCAUGCGGGGAGGAAGAGGUGGCUUCAUGGAUCGUGGUGGUCCCGGUGGAAUGUUCAGAGGUGGCCGUGGUGGAGACAGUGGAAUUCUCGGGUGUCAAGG; result = 0.488
Sequence = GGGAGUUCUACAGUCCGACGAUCUUUUCUGCAUGGACCGUGCCCUAGAAUUUGCCCCUGCCUGCCAUCGCUUCAAAAUCCUCAAGGCAGAAUGUUUAGCAAUGCUGGGUCGUUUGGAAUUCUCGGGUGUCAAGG; result = -0.132

Excerpt of the above (series 3):
Sequence = ACCCCACG; result = 0.321
Sequence = CACCCGTG; result = 0.253
Sequence = TGCCCACA; result = 0.253
Sequence = TCGTGCAA; result = 0.252
Sequence = ATGTGTTC; result = 0.259
Sequence = CTCGTGTA; result = 0.448
Sequence = CATGTTAC; result = 0.283
Sequence = CCCACGAG; result = 0.424
Sequence = CGGACACG; result = 0.317
Sequence = CATCCTCG; result = 0.277
Sequence = CCATGCGC; result = 0.418
